{"data": "Results pooled from the literature", "note": "Each numbered part is a random draw from the data of one study; scales do not carry over between parts. Changes are numbered by the printed parent chain."}
{"data": "Series 1", "target": "BATF, bZIP domain (human)", "method": "DHFR protein complementation", "matrix": "yeast", "notes": "single substitutions, most at no-binding floor", "relative to": "wild-type JUN-FOS pair", "direction": "higher = stronger binding", "parent": "JUN, bZIP domain (human); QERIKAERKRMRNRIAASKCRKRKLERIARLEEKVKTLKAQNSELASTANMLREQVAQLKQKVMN; partner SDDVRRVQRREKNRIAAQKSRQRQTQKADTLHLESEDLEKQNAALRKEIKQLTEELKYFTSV"}
{"Substitution": "A49F", "binding fitness": "-0.583 natural log"}
{"Substitution": "Q58F", "binding fitness": "-0.13 natural log"}
{"Substitution": "Q55P", "binding fitness": "-1.06 natural log"}
{"Substitution": "E32P", "binding fitness": "-0.505 natural log"}
{"Substitution": "T37F", "binding fitness": "0.0583 natural log"}
{"Substitution": "A46K", "binding fitness": "0.0997 natural log"}
{"Substitution": "L38M", "binding fitness": "-0.202 natural log"}
{"Substitution": "E54K", "binding fitness": "-0.0664 natural log"}
{"data": "Series 2", "target": "Histone acetyltransferase KAT6A, both winged helices, GST fusion (KAT6A, Homo sapiens, UniProt Q92794, residues 1-181)", "method": "protein binding microarray", "molecule type": "double-stranded DNA, one strand shown", "matrix": "in vitro", "concentration": "not given", "notes": "8-mer, flanks averaged, mean of 2 arrays, mostly near background", "relative to": "not given", "direction": "higher = stronger binding", "Residues (chain)": "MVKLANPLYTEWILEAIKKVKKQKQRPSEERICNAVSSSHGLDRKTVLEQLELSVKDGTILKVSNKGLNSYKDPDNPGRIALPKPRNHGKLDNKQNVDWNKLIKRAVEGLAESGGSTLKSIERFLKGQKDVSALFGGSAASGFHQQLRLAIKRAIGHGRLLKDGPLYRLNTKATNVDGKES"}
{"Strand": "AACTATAG", "E-score": -0.151}
{"Strand": "AATCAGAA", "E-score": -0.151}
{"Strand": "AGGCATGA", "E-score": -0.172}
{"Strand": "CATCCTGA", "E-score": -0.0374}
{"Strand": "AAGGCGGA", "E-score": 0.187}
{"Strand": "AGAAAACC", "E-score": -0.0665}
{"Strand": "GAAAGATA", "E-score": -0.129}
{"Strand": "GACGCAAC", "E-score": 0.176}
{"data": "Series 3", "target": "RING finger protein unkempt homolog, zinc fingers 1-6, GST-SBP tag (UNK, Homo sapiens, UniProt Q9C0B0, residues 30-357)", "method": "RNA Bind-n-Seq", "molecule type": "RNA", "matrix": "in vitro", "concentration": "not given", "notes": "RNA with constant flanks, human and mouse sites, ends assumed", "relative to": "input RNA pool", "direction": "higher = stronger binding", "shared flanks, not repeated": "GGGAGUUCUACAGUCCGACGAUC … CAACAGAGGAUUGAGCAUCA", "Construct (chain)": "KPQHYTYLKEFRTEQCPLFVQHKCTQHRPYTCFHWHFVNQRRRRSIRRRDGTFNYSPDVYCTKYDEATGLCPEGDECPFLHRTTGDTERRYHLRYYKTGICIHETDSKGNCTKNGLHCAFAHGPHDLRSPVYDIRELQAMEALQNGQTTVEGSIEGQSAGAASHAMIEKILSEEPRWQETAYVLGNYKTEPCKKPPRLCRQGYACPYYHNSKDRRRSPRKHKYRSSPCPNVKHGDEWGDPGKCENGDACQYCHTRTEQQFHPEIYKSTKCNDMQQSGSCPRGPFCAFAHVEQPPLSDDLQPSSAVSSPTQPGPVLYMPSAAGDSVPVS"}
{"Strand": "CACUGAGGUUUCUCUGUCGCCCACCAAAAAAAAAAAAAAAAAAAAAAAUGGAUCACUUAAGGCCUGGGAGGACUCAGUUAUCACAGUAAUCCUGUACCAUCAACUAAGGUUUAUCUGACA", "bound/input enrichment": "0.632 ratio"}
{"Strand": "GUAUUGGUUGGUGGUCCUGUCCCCUAAAGAUCAAGCUACACAUCAGUUUUACAAUAUAAAUACUUGUACUACCUUAAUGAUAAGGACUCCUUAAAGUUCCAUUUGCUAAUGAUUAAUACA", "bound/input enrichment": "0.402 ratio"}
{"Strand": "GCUUCCUUAGGUCUAGAGAAGUUGGUAAGCCCUCCAGCCUCAGCCGCUGCUUCCAGCCCUAGUUCUUCUCCAUCUCCACAGCCUGUUUCAGAGCUUGACAUGUCCUCAGAGCCACCUCAG", "bound/input enrichment": "0.673 ratio"}
{"Strand": "GGGAUUUUGGACCAGGGGGAGGGUGUCCUGAUCAUUUUCGAUGAACCCCCAGUAGAUAAAACUUAUGAAGCUGCUCUGGAAACUAUUCAGAACAUGAGUAAAGUAGUGGACUCCCUCUAC", "bound/input enrichment": "11 ratio"}
{"Strand": "UCUCAGACUCCAGCUUCCAGCCCUACGUUCUUCCAGGCAGAGCUAUGGAUCAAAGAAUUAACUAGCGUUUAUGACUCUCGAGCUCGGGAAAGAUUGCGCCGGAUUGAAGAGCAGAAAGCA", "bound/input enrichment": "0.319 ratio"}
{"Strand": "AUUUUCCAGUUUUAACAAAUUUAAGAACCCCAAACUAACAGGCUUAGUGAUGUAAUUGUGUUUAGUAGAGGUACACUUGUGAAUAAGGAGGGUGGGUGGGGUAGAUGUUGCUAACUGCAA", "bound/input enrichment": "4.13 ratio"}
{"Strand": "UCCCGGCGCCAUGUGAGGGGGCUCGGGGGCCGCGGGGGGCCGGGCGCUCCCCGCCGGAGAUGAGGAAACUGAGGCUCAGAGAGGUCACAUGGCUUGCUCGAGGCCCCCCAGCCAGUGUGA", "bound/input enrichment": "0.0631 ratio"}
{"Strand": "CCGUAGGGGCACAGAGAGCUUAGAUCACCUUGCUGGUCUCUCACAUUAUUACCAUGCUGAUACUAGCUAUAGACACUUCCCCAAGUCUGAAAAGUAUAGCAUCAGUAGACUCACCCUGGA", "bound/input enrichment": "0.416 ratio"}
{"data": "Further values, each from its own experiment", "parent": "PafA, mature enzyme, eGFP fusion (Elizabethkingia meningoseptica, UniProt Q9KJX5); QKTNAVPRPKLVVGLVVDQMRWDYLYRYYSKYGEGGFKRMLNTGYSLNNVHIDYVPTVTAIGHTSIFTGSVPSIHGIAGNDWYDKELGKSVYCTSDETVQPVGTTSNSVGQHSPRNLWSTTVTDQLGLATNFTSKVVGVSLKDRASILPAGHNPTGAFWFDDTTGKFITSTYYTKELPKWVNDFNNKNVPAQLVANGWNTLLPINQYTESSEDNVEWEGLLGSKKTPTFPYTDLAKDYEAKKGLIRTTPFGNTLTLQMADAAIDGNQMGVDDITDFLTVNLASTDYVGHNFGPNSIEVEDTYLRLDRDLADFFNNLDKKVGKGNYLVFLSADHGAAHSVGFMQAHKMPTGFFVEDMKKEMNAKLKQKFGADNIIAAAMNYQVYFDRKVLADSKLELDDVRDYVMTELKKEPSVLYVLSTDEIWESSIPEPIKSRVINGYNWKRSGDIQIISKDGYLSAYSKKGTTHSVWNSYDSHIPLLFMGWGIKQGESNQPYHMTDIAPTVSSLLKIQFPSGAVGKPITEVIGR"}
{"Substitution": "V55A", "target": "vanadate, free oxyanion", "assay": "microfluidic competitive inhibition", "system": "in vitro, cell-free expressed", "setting": "not given, derived from inhibition constants, unchanged parent 676 nM", "how to read": "lower = stronger binding", "measurement": "oxyanion analog dissociation constant", "result": "654 nM"}
